Experimental data from different studies.
Protocols differ between the studies behind these lines. ± gives the spread as reported.

O=C(O)c1ccc([PH]([Au][Cl])(c2ccccc2)c2ccccc2)cc1
IC50 (A2780; cell growth or viability, resazurin; 72 h): 11.5 µM

[Cl][Ag].[Se]=c1n(C2CCCCC2)ccn1C1CCCCC1
IC50 (A-431; cell growth or viability, MTT; 72 h): 4.1 µM

CC(C)C[C@H](NC(=O)[C@H](CC(C)C)NC(=O)[C@H](CCC(=O)O)NC(=O)[C@H](Cc1c[nH]cn1)NC(=O)[C@H](CC(C)C)NC(=O)[C@H](Cc1c[nH]cn1)NC(=O)[C@H](CCC(=O)O)NC(=O)[C@H](CC(C)C)NC(=O)[C@H](CC(C)C)NC(=O)[C@H](CCC(=O)O)NC(=O)[C@H](Cc1c[nH]cn1)NC(=O)[C@@H](N)CC(C)C)C(=O)N[C@@H](CCC(=O)O)C(=O)N[C@@H](Cc1c[nH]cn1)C(N)=O
IC50 (RG; cell viability, MTT; 0.5 h, pH 6.0): > 100 µM

NC1CC1c1ccc(NC(=O)C(CCc2ccccc2)NC(=O)OCc2ccccc2)cc1 (stereo not shown)
IC50 (MV4-11 (AML)): 8.7 ± 0.9 µM

CC(C)C[C@H](NC(=O)[C@H](CCCCN)NC(=O)[C@H](CC(C)C)NC(=O)[C@H](CC(C)C)NC(=O)[C@H](CCCCN)NC(=O)[C@H](CCCCN)NC(=O)[C@H](CC(C)C)NC(=O)[C@H](CC(C)C)NC(=O)[C@H](CCCCN)NC(=O)[C@H](CC(C)C)NC(=O)[C@H](CC(C)C)NC(=O)[C@H](CCCCN)NC(=O)[C@H](CCCCN)NC(=O)[C@H](CC(C)C)NC(=O)[C@@H](N)CSSC[C@H](N)C(=O)N[C@@H](CC(C)C)C(=O)N[C@@H](CCC(=O)O)C(=O)N[C@@H](Cc1c[nH]cn1)C(=O)N[C@@H](CC(C)C)C(=O)N[C@@H](CC(C)C)C(=O)N[C@@H](CCC(=O)O)C(=O)N[C@@H](Cc1c[nH]cn1)C(=O)N[C@@H](CC(C)C)C(=O)N[C@@H](CCC(=O)O)C(=O)N[C@@H](Cc1c[nH]cn1)C(=O)N[C@@H](CC(C)C)C(=O)N[C@@H](CC(C)C)C(=O)N[C@@H](CCC(=O)O)C(=O)N[C@@H](Cc1c[nH]cn1)C(N)=O)C(N)=O
IC50 (RG; cell viability, MTT; 0.5 h, pH 6.0): 13.4 µM

C[C@H]1[C@H](OC(=O)CCC(=O)OCCc2ccc(O)cc2)O[C@@H]2O[C@@]3(C)CC[C@H]4[C@H](C)CC[C@@H]1[C@@]24OO3
IC50 (RPMI-7951; cell viability, MTT; 24 h, with: deferoxamine 20 µM, 1 h before): 24.5 ± 2.1 µM

C=C(C)CC(OC)C(O)C(=O)NC(OC)C1CC(=C)C(C)(C)C(CC(O)C(C)C2Cc3c(C)c(O)cc(O)c3C(=O)O2)O1 (single isomer, unassigned; (+))
IC50 (IMR-90; cell growth or viability): 0.049 µM

Cc1cc(Oc2nc(N3CC[C@@H](c4ccncc4)C3)ncc2F)[nH]n1
IC50 (cancer cell lines; cell growth; 72 h, mean over lines): > 100 µM

C=C(C)C[C@H](OC)[C@H](O)C(=O)N[C@@H](OC)[C@@H]1C[C@H](O)C(C)(C)[C@@H](C[C@H](O)[C@@H](C)[C@H]2Cc3c(C)c(O)cc(O)c3C(=O)O2)O1
IC50 (H522-T1; cell growth or viability): 0.0009 µM

C[C@H](NC(=O)[C@H](CCCNC(=N)N)NC(=O)[C@H](CCCNC(=N)N)NC(=O)[C@@H]1CCCN1C(=O)CNC(=O)[C@H](CCCNC(=N)N)NC(=O)[C@H](CCCNC(=N)N)NC(=O)CN)C(=O)N[C@@H](CC(N)=O)C(=O)N[C@@H](CCC(N)=O)C(=O)N[C@@H](CC(N)=O)C(=O)NCC(=O)N[C@H](C(=O)N[C@@H](CCCNC(=N)N)C(=O)N[C@@H](CCCNC(=N)N)C(=O)N[C@@H](CCCNC(=N)N)C(=O)N[C@@H](CCCNC(=N)N)C(=O)N[C@@H](CCCNC(=N)N)C(=O)N[C@@H](CCCNC(=N)N)C(=O)N[C@H](C(N)=O)[C@@H](C)O)[C@@H](C)O
IC50 (BT-20; cell viability, CellTiter-Blue; 24 h, serum-free medium): > 100 µM

C[C@H]1[C@H](OC(=O)CCC(=O)O[C@H]2CO[C@H]3[C@@H]2OC[C@H]3O[N+](=O)[O-])O[C@@H]2O[C@@]3(C)CC[C@H]4[C@H](C)CC[C@@H]1[C@@]24OO3
IC50 (K562/Adr; cell growth or viability, CCK-8; 72 h): 6.63 µM

Cc1cc(C)c(-n2ccn(-c3c(C)cc(C)cc3C)c2=[Se])c(C)c1.[Cl][Ag]
IC50 (A2780; cell growth or viability; 72 h, 3D culture): 17.4 µM

Cc1cc(Nc2nc(C[C@@]3(C(=O)O)CCN(Cc4cccc(Cl)c4F)[C@H](C)C3)cc(C)c2F)[nH]n1
IC50 (neuroblastoma cell lines; cell proliferation; mean of four lines): 0.0173 µM

CC(C)C[C@H](NC(=O)[C@H](CC(C)C)NC(=O)[C@H](CCC(=O)O)NC(=O)[C@H](CCC(=O)O)NC(=O)[C@H](CC(C)C)NC(=O)[C@H](Cc1c[nH]cn1)NC(=O)[C@H](Cc1c[nH]cn1)NC(=O)[C@H](CC(C)C)NC(=O)[C@H](CC(C)C)NC(=O)[C@H](CCC(=O)O)NC(=O)[C@H](CCC(=O)O)NC(=O)[C@@H](N)CC(C)C)C(=O)N[C@@H](Cc1c[nH]cn1)C(=O)N[C@@H](Cc1c[nH]cn1)C(N)=O
IC50 (HK-2; cell growth or viability, MTT; pH 6): > 100 µM

CC(C)C[C@H](NC(=O)[C@H](C)NC(=O)[C@H](CCCCN)NC(=O)[C@H](C)NC(=O)[C@H](C)NC(=O)[C@@H]1CSCc2ccccc2CSC[C@H](NC(=O)[C@H](CCCCN)NC(=O)[C@H](Cc2ccccc2)NC(=O)CN)C(=O)N[C@@H](CC(C)C)C(=O)N[C@@H](CC(C)C)C(=O)N[C@@H](CCCCN)C(=O)N1)C(=O)N[C@H](C(=O)N[C@@H](CCCCN)C(=O)N[C@H](C(=O)N[C@H](C(=O)N[C@@H](CC(C)C)C(=O)N[C@@H](Cc1ccccc1)C(N)=O)C(C)C)[C@@H](C)O)C(C)C
IC50 (U87; cell proliferation, CCK-8; 48 h): 16 µM

Cc1cc(C)c(N2CCN(c3c(C)cc(C)cc3C)C2=[Se])c(C)c1.[Cl][Ag]
IC50 (A-431; cell growth or viability, MTT; 72 h): 0.5 µM

CC(C)C[C@H](NC(=O)[C@H](CCCCN)NC(=O)[C@H](CC(C)C)NC(=O)[C@H](CC(C)C)NC(=O)[C@H](CCCCN)NC(=O)[C@H](CCCCN)NC(=O)[C@H](CC(C)C)NC(=O)[C@H](CC(C)C)NC(=O)[C@H](CCCCN)NC(=O)[C@H](CC(C)C)NC(=O)[C@H](CC(C)C)NC(=O)[C@H](CCCCN)NC(=O)[C@H](CCCCN)NC(=O)[C@H](CC(C)C)NC(=O)[C@@H](N)CSSC[C@H](N)C(=O)N[C@@H](CC(C)C)C(=O)N[C@@H](Cc1c[nH]cn1)C(=O)N[C@@H](CCC(=O)O)C(=O)N[C@@H](CC(C)C)C(=O)N[C@@H](CC(C)C)C(=O)N[C@@H](CCC(=O)O)C(=O)N[C@@H](Cc1c[nH]cn1)C(=O)N[C@@H](CC(C)C)C(=O)N[C@@H](Cc1c[nH]cn1)C(=O)N[C@@H](CCC(=O)O)C(=O)N[C@@H](CC(C)C)C(=O)N[C@@H](CC(C)C)C(=O)N[C@@H](CCC(=O)O)C(=O)N[C@@H](Cc1c[nH]cn1)C(N)=O)C(N)=O
IC50 (RG; cell viability, MTT; 0.5 h, pH 6.0): 12.6 µM

CN(C)C1=[S+][Au-]2([S]1)[c]1ccccc1-c1cccc[c]12
IC50 (BT-333 glioblastoma; MTT; 72 h): 1.99 ± 0.07 µM

COc1cccc2c1cc([N+](=O)[O-])c1c(C(=O)O)cc3c(c12)OCO3
IC50 (HK-2; cell growth or viability): 103 µM

O=C(Cc1ccc2ccccc2c1)N[C@H](Cc1ccc(OP(=O)(O)O)cc1)C(=O)N[C@H](Cc1ccccc1)C(=O)N[C@H](Cc1ccccc1)C(=O)N[C@H](Cc1ccc(OP(=O)(O)O)cc1)C(=O)O
IC50 (A2780cis; cell growth or viability, MTT): > 483 µg/mL

CC(C)C[C@H](NC(=O)[C@H](CC(C)C)NC(=O)[C@H](Cc1c[nH]cn1)NC(=O)[C@H](CCC(=O)O)NC(=O)[C@H](CC(C)C)NC(=O)[C@H](Cc1c[nH]cn1)NC(=O)[C@H](CCC(=O)O)NC(=O)[C@H](CC(C)C)NC(=O)[C@H](CC(C)C)NC(=O)[C@H](Cc1c[nH]cn1)NC(=O)[C@H](CCC(=O)O)NC(=O)[C@@H](N)CC(C)C)C(=O)N[C@@H](CCC(=O)O)C(=O)N[C@@H](Cc1c[nH]cn1)C(N)=O
IC50 (HK-2; cell growth or viability, MTT; pH 6): > 100 µM

C[C@H]1C(OCCCCCCCCCC[P+](c2ccccc2)(c2ccccc2)c2ccccc2)O[C@@H]2O[C@@]3(C)CCC4[C@H](C)CCC1[C@]42OO3 (stereo partly shown)
IC50 (SK-OV-3; cell growth or viability, MTT; 72 h): 0.0653 µM

CC(=O)c1nn(-c2ccc(Cl)cc2)c2nc3nc(-c4ccccc4)cc(-c4ccc5ccccc5n4)c3c(=O)n12
IC50 (RPE-1; cell growth or viability, MTT; 48 h): 23.6 µM

C#CCN[C@@H]1C=C[C@]2(O[C@H]([C@@H](CC)C(=O)[C@@H](C)[C@@H](O)[C@H](C)[C@@H]3O[C@@H]([C@@H](CC)C(=O)O)CC[C@@H]3C)[C@@H](C)C[C@H]2C)O[C@@]12CC[C@@](C)([C@H]1CC[C@](O)(CC)[C@H](C)O1)O2
IC50 (HMLER CD24high/CD44low; CellTiter-Blue; 72 h): 2.28 ± 0.16 µM

O=C(Cc1ccc2ccccc2c1)N[C@H](Cc1ccccc1)C(=O)N[C@H](Cc1ccccc1)C(=O)N[C@H](Cc1ccc(O)cc1)C(=O)N[C@H](Cc1ccc(O)cc1)C(=O)O
IC50 (A2780cis; cell growth or viability, MTT): > 500 µg/mL

COC(=O)CC[C@@H](NC(=O)[C@@H](Cc1ccc(OP(=O)(O)O)cc1)NC(=O)[C@@H](Cc1ccccc1)NC(=O)[C@@H](Cc1ccccc1)NC(=O)Cc1ccc2ccccc2c1)C(=O)OC
IC50 (A2780-res; cell viability; 72 h): > 200 µM

CCOP(=O)(OCC)OCCCCOC(=O)CC1=C(C)C(=Cc2ccc([S+](C)[O-])cc2)c2ccc(F)cc21 (stereo not shown)
IC50 (A549 mock siRNA-transfected; cell viability; 24 h): 95 µM

O=C(N=P12CN3CN(CN(C3)C1)C2)c1cccc[c]1[Pd]([Br])([PH]12CN3CN(CN(C3)C1)C2)[PH]12CN3CN(CN(C3)C1)C2
IC50 (human PBMC; cytotoxicity, MTT; 24 h, 1% DMSO): > 500 µM

A few entries again:
O=C(Cc1ccc2ccccc2c1)N[C@H](Cc1ccc(OP(=O)(O)O)cc1)C(=O)N[C@H](Cc1ccccc1)C(=O)N[C@H](Cc1ccccc1)C(=O)N[C@H](Cc1ccc(OP(=O)(O)O)cc1)C(=O)O
IC50 (A2780cis; cell growth or viability, MTT): > 483 µg/mL

CC(C)C[C@H](NC(=O)[C@H](CC(C)C)NC(=O)[C@H](Cc1c[nH]cn1)NC(=O)[C@H](CCC(=O)O)NC(=O)[C@H](CC(C)C)NC(=O)[C@H](Cc1c[nH]cn1)NC(=O)[C@H](CCC(=O)O)NC(=O)[C@H](CC(C)C)NC(=O)[C@H](CC(C)C)NC(=O)[C@H](Cc1c[nH]cn1)NC(=O)[C@H](CCC(=O)O)NC(=O)[C@@H](N)CC(C)C)C(=O)N[C@@H](CCC(=O)O)C(=O)N[C@@H](Cc1c[nH]cn1)C(N)=O
IC50 (HK-2; cell growth or viability, MTT; pH 6): > 100 µM
